Assay results of several laboratories.
Every numbered part comes from another study and shows a few of its results, in no order.

Series 1
Target: Phosphate system positive regulatory protein PHO4, full length, GST-tagged (PHO4, Saccharomyces cerevisiae, UniProt P07270, residues 1-312)
Method: competition protein-binding microarray
Molecule type: double-stranded DNA, one strand shown
Matrix: in vitro
Concentration: 2 µM
Notes: whole 60-bp probe, lowest competitor level
Together with: Cbf1 competitor, 0.05 µM
Direction: higher = stronger binding
Construct (chain): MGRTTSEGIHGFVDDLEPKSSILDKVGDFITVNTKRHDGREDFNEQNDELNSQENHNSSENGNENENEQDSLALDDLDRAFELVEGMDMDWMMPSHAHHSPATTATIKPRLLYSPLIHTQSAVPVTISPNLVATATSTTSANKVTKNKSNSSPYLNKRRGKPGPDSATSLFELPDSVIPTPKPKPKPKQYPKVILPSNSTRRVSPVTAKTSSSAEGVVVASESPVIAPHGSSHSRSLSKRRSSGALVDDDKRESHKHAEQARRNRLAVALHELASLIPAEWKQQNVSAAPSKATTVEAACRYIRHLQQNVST
The fluorescence intensity of `AAAAGCATTCTTTGTCACGTGCCAGGGTTTGCTCCTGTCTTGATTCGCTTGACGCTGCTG` is reported as 20200 a.u.
`AACCTACATCTTCACATCGTGGCCGAATTGAAGCTAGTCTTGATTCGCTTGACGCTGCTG` gave a fluorescence intensity of 9130 a.u.
For `AGTCATTGCGTTACCCACGTGGTCGTTATTGTCCATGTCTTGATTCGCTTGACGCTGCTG`, the fluorescence intensity was 18200 a.u.
The fluorescence intensity of `TTGACAATGTCGAGTCACGTGCAAAACAATTCAAGTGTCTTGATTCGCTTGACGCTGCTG` is reported as 16700 a.u.
`TTTAACCTCTAGTAAGAAGGACCCGGCACTTATTGTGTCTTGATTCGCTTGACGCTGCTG` has a fluorescence intensity of 3010 a.u.
With `GTCTTGTCTCATTGCCTAGTGGGTGTCCCCACTTCAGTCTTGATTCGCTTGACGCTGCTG` the fluorescence intensity was 5640 a.u.
`GCATAAGGAGTGGCCCATGTGTGCCAAAACTCTTCTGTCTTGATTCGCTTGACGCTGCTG` has a fluorescence intensity of 10100 a.u.
`CTACCGTCAAATATACACGTGTAGTCCCTGGATTTGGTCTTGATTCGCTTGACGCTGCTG` gave a fluorescence intensity of 17500 a.u.

Series 2
Target: Prothrombin, mature alpha-thrombin (F2, Homo sapiens, UniProt P00734)
Method: aptamer microarray, sandwich
Molecule type: DNA with 2'F-ANA
Matrix: in vitro
Concentration: 200 nM
Notes: whole 15-mer aptamer, many near background
Together with: Cy3 exosite-II aptamer, 400 nM
Direction: higher = stronger binding
Sequence: GGTTGGTGTGGTTGG
Under “mean fluorescence intensity”, `2'F-ANA at 3 4 6 10 13 15` is recorded as 191 a.u.
Under “mean fluorescence intensity”, `2'F-ANA at 1 2 3 8 13` is recorded as 269 a.u.
`2'F-ANA at 3 5 6 7 8 9 10 11 13 14 15`: “mean fluorescence intensity” 56 a.u.
Under “mean fluorescence intensity”, `2'F-ANA at 1 7 10 14 15` is recorded as 47.1 a.u.
`2'F-ANA at 3 6 8 9 12 13 14`: “mean fluorescence intensity” 546 a.u.
For `2'F-ANA at 3 4 7 10 13 14 15`, “mean fluorescence intensity” read 218 a.u.
For `2'F-ANA at 2 3 4 5 7 10 12 13 15`, “mean fluorescence intensity” read 54 a.u.
Under “mean fluorescence intensity”, `2'F-ANA at 1 3 5 6 7 15` is recorded as 64.8 a.u.

Further values, each from its own experiment
`C[N+]1(CC2CCCCCC2)CCC(NC(=O)C2c3cc(Cl)ccc3Oc3ccc(Cl)cc32)CC1` (stereo not drawn) has a nuclei count of -0.109 z-score (mouse MPNST tumor cells; high-content nuclear imaging, item: cell number; 10 µM, 12 h, mean of 2 replicates; relative to: plate mean, higher = more cells).
Under interaction screen, `NAP1L1 (Homo sapiens, UniProt P55209)` is recorded as “cross-linked” (NAP1L4 (Homo sapiens, UniProt Q99733); cross-linking MS; hits only).

For quick reference, copied from above (series 2):
`2'F-ANA at 3 5 6 7 8 9 10 11 13 14 15`: “mean fluorescence intensity” 56 a.u.
